Measured values of several laboratories.
Each numbered part is a random draw from the data of one study; scales do not carry over between parts. Substitutions count along the parent as printed.

Series 1 — target: CCNE1, cyclin fold, Cln2 fusion (human); method: yeast growth competition, sequencing; medium: yeast; setting: strong parent motif; reference: not given; reading: higher = stronger binding
Parent: E2F2 docking peptide (human); LPAKRKLDLEGIG; partner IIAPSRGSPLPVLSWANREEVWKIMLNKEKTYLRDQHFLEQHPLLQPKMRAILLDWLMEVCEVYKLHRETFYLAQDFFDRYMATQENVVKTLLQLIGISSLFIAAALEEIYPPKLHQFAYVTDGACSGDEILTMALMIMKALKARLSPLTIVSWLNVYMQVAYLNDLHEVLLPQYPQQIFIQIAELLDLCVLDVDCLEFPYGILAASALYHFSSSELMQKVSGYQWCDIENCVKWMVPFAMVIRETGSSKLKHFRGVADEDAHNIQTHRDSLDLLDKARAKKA
Change | normalised enrichment score
D8A | -0.305
K4A | 1.16
E10A | 0.705
R5A L7A | 0.0822
R5A | 0.611
R5K L9F | 3.37
K6A | 0.325
L9F | 5.59
I12A | 1.27

Series 2 — method: protein-binding microarray; molecule type: double-stranded DNA, one strand shown; medium: in vitro; tested at: 250 nM; setting: 60-bp whole probe; with: salmon DNA 0.4 mg/ml; reference: random background probes; reading: higher = stronger binding; all sequences stand within: GCCTAGCAC … GTCTTGATTCGCTTGACGCTGCTG
Target: Interferon regulatory factor 7, full length, phosphomimetic (IRF7, Homo sapiens, UniProt Q92985, residues 1-503, S101K/S471D/S472D/S475D/S476D/S477D/S483D/S484D/S487D)
Construct (chain): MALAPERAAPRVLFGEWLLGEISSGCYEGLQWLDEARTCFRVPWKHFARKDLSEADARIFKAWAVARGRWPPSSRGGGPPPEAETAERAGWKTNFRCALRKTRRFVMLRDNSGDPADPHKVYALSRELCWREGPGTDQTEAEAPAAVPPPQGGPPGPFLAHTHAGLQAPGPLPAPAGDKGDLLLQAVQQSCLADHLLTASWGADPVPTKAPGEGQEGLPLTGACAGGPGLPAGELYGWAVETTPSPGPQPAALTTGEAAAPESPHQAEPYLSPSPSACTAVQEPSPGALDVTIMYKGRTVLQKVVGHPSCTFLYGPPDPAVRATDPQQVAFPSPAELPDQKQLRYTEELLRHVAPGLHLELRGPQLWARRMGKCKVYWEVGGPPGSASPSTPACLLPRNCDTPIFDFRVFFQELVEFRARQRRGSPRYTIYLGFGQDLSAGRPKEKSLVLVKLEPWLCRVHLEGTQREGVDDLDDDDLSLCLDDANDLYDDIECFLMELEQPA
Sequence | log fluorescence [z-score]
TTAGGACGGGGTTTCGGTTAGTGCTAG | 6.32
TGAGATATCAGTTTCGATTAGTGCTAG | 8.12
GATGGACTGGGTATCGGGACGTGCTAG | -0.601
GACGGATTCGGTTCCGGGACGTGCTAG | 4.73
TTAGATCTCTGTCTCGATTAGTGCTAG | 0.504
GACGGACTGCTTCTCCTTACGTGCTAG | -0.278
TTAGTTTTCAGACTGGATTAGTGCTAG | 0.838
ATAGGTTCCGGTTTCGGTTAGTGCTAG | 11.4
TTAGGACTGGGTTTCGCTTAGTGCTAG | 4.58
GGGTCTCTTGTTCTCTCTGGGTGCTAG | 1.13
GACGGTTTACTACTGCTGACGTGCTAG | 0.098
GACGGTTTCGGGTTTCGAGACGTGCTA | 12.3
GGCTCCTCCCCGCTTCTGGAGTGCTAG | -0.336
TTAGGACTGGGACAGGGTTAGTGCTAG | 0.175
GACGATCTCAGTATCGAGATGTGCTAG | 0.24
TCAGATTTCCACTTTCTACTGTGCTAG | 1.2
GACGATCTCAGAATCGAGACGTGCTAG | 0.215
GACGGTTTCCGTTTCGGGACGTGCTAG | 8.55

Series 3 — method: aptamer microarray, sandwich; molecule type: DNA with 2'F-ANA; medium: in vitro; tested at: 200 nM; with: Cy3 exosite-II aptamer, 400 nM; reading: higher = stronger binding; sequence: GGTTGGTGTGGTTGG
Target: Prothrombin, mature alpha-thrombin (F2, Homo sapiens, UniProt P00734)
Setting: whole 15-mer aptamer, many near background
Modification | mean fluorescence intensity
2'F-ANA at 1 2 3 4 5 8 9 10 15 | 56.6 a.u.
2'F-ANA at 1 5 7 8 9 11 12 13 14 | 52.4 a.u.
2'F-ANA at 1 2 4 7 8 9 11 12 13 15 | 166 a.u.
2'F-ANA at 2 3 6 8 9 10 11 12 14 | 254 a.u.
2'F-ANA at 1 2 3 5 8 13 14 | 46.3 a.u.
2'F-ANA at 1 2 4 6 9 10 12 14 15 | 49.3 a.u.
2'F-ANA at 1 2 3 4 5 6 7 8 13 14 15 | 52 a.u.
2'F-ANA at 1 3 8 9 11 12 14 | 110 a.u.
2'F-ANA at 3 7 9 10 12 13 14 | 497 a.u.
2'F-ANA at 1 3 4 7 8 10 12 15 | 85.2 a.u.
2'F-ANA at 4 5 8 9 10 12 13 15 | 47.7 a.u.
2'F-ANA at 4 6 7 8 11 12 13 14 15 | 104 a.u.
2'F-ANA at 2 7 8 10 13 | 141 a.u.
2'F-ANA at 4 6 8 9 12 14 | 129 a.u.
2'F-ANA at 1 2 3 4 7 10 11 13 14 15 | 54.3 a.u.
2'F-ANA at 1 2 3 5 7 11 14 15 | 52 a.u.
2'F-ANA at 1 3 4 5 7 8 9 11 14 15 | 66.2 a.u.
2'F-ANA at 1 2 5 8 9 13 | 50.1 a.u.

Series 4 — method: universal PBM; molecule type: double-stranded DNA, one strand shown; medium: in vitro; tested at: not given; reading: higher = stronger binding
Target: Sal-like protein 4, full length isoform B (SALL4, Homo sapiens, UniProt Q9UJQ4-2, residues 1-616)
Setting: 8-mer, flanks averaged, mean of replicates
Target sequence (chain): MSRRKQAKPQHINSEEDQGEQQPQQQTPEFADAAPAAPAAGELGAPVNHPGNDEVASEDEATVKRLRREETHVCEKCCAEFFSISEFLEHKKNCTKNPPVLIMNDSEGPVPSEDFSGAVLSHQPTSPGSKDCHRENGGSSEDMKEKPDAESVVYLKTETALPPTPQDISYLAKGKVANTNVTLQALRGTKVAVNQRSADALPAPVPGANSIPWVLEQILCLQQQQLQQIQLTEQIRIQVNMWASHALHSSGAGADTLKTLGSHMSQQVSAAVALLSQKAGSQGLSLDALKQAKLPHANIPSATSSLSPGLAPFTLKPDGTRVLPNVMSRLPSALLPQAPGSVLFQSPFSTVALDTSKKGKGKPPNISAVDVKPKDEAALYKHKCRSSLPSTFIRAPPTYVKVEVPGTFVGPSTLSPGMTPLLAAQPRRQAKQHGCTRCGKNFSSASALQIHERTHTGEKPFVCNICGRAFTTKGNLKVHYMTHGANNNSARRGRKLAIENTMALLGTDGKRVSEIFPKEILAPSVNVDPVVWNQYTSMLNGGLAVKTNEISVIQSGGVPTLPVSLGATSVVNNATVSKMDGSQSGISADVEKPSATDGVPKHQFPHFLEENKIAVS
Sequence | E-score
CGTGCAGC | -0.23
CTAAAACC | 0.0203
AAAGACCG | 0.00018
CTTAGTCC | -0.0755
GGTGAAAC | -0.115
AGCGGCCG | -0.223
GACCGAGA | -0.0694
AACTGGGC | -0.298
GTGAACAC | -0.0885
CGATAGAG | -0.0186
CCAAACCG | -0.3
AGACCTAC | -0.0108
CAAAACCG | -0.0904
CGATATCC | -0.0633
CATTTAGC | 0.064
ACTACTAT | 0.251

Series 5 — target: JUN, bZIP domain (human); method: DHFR protein complementation; medium: yeast; reference: wild-type JUN-FOS pair; reading: higher = stronger binding
Setting: single substitutions, most at no-binding floor
Parent: JUN, bZIP domain (human); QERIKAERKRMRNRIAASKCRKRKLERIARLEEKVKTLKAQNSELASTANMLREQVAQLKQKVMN
Change | binding fitness [natural log]
L52K | -1.42
L59G | -1.29
N42D | -1.41
V35S | -1.3
L45N | -1.3
T37P | -1.41
T48P | -1.38
A49P | -1.35
L31F | -1.3
L52D | -1.37
Q55G | -1.34
L52E | -1.41
R53P | -1.29

Series 6 — method: protein binding microarray; molecule type: double-stranded DNA, one strand shown; medium: in vitro; tested at: not given; reference: not given; reading: higher = stronger binding
Target: Histone acetyltransferase KAT6A, both winged helices, GST fusion (KAT6A, Homo sapiens, UniProt Q92794, residues 1-181)
Setting: 8-mer, flanks averaged, mean of 2 arrays, mostly near background
Target sequence (chain): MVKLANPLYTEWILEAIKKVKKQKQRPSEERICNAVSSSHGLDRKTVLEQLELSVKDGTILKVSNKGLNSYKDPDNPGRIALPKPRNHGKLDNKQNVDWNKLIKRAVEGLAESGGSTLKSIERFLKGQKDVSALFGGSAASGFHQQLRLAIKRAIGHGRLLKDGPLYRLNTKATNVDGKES
Sequence | E-score
TACTGTCA | -0.083
AACTATGA | -0.0593
CTCAATTA | -0.0764
AACAGCGA | 0.0383
GTGCAAAC | 0.0614
AAGCTGGT | -0.0644
AAGTGGCT | -0.105
CAGGGATC | -0.215
GCACTTAA | 0.0178
CCGGTTAG | 0.17
AGCTTTTG | -0.116
ACCCATTG | -0.0773
GACCGGGA | 0.212
CCGATAGA | 0.0679
AACGGGGA | 0.0926
GAACCATA | -0.0828
ATTCTGAA | -0.0323
AGTCAAAT | -0.157
CTATCTCC | -0.217
CACGTTGA | -0.113
GTCATAAC | -0.102
CTCGCCTC | -0.139
CTCATGGC | -0.0258
AGCGTTAA | 0.0554
ACCTAACT | -0.0862

Series 7 — method: DHFR PCA, deep sequencing; medium: yeast; with: (+)-ABA 2500 µM; reference: wild-type fitted maximum; reading: higher = stronger binding
Target: ABI1, truncated, D143A, DHFR fusion (Arabidopsis thaliana)
Setting: methotrexate growth selection, single substitutions
Parent: PYL1, truncated, DHFR fusion (Arabidopsis thaliana); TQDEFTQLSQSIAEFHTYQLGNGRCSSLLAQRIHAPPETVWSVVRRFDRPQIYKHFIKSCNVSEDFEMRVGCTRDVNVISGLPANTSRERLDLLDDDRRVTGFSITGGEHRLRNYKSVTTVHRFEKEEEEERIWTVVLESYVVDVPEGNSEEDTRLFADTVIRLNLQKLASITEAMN; partner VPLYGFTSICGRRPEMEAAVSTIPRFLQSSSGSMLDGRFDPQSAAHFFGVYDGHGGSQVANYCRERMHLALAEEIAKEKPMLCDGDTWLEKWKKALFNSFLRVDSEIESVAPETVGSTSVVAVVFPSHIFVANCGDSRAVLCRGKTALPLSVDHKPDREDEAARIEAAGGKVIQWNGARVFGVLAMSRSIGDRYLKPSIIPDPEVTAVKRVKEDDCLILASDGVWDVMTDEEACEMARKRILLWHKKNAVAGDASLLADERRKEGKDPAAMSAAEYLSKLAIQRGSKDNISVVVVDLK
Change | relative binding score
I12D | 71.9%
K168Y | 86.2%
S104Q | 82.8%
T173Y | 81.3%
S9V | 94.4%
V143N | 38.7%
G71R | 79.3%
C60Y | 54.4%
N177E | 96.9%
D144H | 79.7%
P146G | 89.1%
T160D | 17.6%
D159L | 47.9%
L29H | 103%

A few entries again (series 4):
Sequence | E-score
CTAAAACC | 0.0203
AAAGACCG | 0.00018
CTTAGTCC | -0.0755
GGTGAAAC | -0.115
AGCGGCCG | -0.223
GACCGAGA | -0.0694
AACTGGGC | -0.298
GTGAACAC | -0.0885
CGATAGAG | -0.0186
CCAAACCG | -0.3
AGACCTAC | -0.0108
CAAAACCG | -0.0904
CGATATCC | -0.0633
CATTTAGC | 0.064
